Assay results gathered from unrelated publications.
A part holds a random share of what one study measured. Changes are numbered by the printed parent chain.
UniProt O15146, sequence (whole entry, looked up): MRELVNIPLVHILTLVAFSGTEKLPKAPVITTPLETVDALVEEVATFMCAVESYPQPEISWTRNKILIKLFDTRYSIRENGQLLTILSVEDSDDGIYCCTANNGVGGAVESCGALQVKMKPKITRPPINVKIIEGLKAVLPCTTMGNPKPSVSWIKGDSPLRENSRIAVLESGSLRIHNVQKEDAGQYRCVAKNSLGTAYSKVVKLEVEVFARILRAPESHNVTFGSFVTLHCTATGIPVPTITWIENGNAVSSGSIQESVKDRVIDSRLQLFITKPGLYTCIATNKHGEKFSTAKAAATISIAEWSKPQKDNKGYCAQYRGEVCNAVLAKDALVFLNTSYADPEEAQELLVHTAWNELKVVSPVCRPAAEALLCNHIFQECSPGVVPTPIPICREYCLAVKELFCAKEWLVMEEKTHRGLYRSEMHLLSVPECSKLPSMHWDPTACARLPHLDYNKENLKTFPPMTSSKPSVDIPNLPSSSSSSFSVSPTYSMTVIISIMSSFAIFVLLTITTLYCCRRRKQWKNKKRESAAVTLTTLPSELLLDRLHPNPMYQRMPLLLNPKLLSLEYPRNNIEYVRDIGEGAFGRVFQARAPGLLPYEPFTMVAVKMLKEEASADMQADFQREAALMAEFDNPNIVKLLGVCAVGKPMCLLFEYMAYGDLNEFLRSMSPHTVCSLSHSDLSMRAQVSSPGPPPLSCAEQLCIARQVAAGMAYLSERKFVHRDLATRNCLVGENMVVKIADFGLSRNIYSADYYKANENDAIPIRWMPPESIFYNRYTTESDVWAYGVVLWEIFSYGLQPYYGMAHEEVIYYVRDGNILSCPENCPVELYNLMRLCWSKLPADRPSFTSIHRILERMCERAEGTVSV
UniProt Q8WXR4, sequence (whole entry, looked up): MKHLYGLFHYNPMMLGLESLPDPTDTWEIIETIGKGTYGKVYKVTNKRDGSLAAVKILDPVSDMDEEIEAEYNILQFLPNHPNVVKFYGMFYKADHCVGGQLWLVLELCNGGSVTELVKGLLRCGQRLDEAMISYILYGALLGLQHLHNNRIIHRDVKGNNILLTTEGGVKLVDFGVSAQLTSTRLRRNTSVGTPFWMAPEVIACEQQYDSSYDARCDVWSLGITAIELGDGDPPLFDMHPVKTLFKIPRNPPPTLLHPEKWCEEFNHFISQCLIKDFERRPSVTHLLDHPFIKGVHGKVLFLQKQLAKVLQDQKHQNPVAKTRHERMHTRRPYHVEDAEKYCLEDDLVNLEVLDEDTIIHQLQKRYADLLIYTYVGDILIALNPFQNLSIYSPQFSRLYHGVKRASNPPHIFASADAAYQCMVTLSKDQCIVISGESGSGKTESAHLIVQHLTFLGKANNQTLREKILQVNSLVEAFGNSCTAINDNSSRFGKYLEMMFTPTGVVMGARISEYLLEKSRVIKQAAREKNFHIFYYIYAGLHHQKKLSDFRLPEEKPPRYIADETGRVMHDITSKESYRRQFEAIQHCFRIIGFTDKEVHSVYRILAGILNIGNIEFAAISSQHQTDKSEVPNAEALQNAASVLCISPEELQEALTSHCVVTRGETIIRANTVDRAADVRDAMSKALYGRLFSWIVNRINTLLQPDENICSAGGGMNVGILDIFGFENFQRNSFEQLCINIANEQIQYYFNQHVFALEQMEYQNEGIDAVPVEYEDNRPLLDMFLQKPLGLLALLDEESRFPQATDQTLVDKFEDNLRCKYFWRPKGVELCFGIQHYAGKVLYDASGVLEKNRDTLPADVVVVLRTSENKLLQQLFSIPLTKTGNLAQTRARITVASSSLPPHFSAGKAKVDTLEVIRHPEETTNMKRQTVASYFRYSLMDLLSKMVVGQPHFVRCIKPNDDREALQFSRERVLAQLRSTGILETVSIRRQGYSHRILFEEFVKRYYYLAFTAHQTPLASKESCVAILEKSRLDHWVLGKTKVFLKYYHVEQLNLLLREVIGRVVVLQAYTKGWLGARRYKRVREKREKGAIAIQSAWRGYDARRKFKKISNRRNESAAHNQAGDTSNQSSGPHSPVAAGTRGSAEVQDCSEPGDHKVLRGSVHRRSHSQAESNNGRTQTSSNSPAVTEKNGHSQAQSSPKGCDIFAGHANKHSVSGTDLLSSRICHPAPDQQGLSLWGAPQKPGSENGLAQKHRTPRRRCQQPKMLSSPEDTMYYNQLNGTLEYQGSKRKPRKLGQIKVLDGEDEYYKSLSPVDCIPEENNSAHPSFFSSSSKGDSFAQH
UniProt O14920, sequence (whole entry, looked up): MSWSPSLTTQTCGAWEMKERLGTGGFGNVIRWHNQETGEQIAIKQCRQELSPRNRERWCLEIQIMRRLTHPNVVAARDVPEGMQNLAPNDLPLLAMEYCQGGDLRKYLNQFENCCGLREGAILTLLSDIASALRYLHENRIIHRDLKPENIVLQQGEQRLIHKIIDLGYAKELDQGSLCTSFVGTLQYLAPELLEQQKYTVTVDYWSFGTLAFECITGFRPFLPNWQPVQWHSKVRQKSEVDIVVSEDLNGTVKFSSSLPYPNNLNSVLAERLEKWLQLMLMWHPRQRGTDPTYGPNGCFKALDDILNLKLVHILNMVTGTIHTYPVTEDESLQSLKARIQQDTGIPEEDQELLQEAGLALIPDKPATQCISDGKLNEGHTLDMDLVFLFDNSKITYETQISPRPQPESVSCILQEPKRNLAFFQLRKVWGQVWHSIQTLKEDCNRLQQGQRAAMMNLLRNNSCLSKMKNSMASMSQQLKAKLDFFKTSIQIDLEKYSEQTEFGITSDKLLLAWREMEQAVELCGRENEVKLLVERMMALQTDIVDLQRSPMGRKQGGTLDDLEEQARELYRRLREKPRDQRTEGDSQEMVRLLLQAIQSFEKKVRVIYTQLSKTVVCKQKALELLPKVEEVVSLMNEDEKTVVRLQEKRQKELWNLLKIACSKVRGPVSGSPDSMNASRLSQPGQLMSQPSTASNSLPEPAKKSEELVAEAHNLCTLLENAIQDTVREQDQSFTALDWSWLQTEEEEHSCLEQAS
UniProt P0C264, sequence (whole entry, looked up): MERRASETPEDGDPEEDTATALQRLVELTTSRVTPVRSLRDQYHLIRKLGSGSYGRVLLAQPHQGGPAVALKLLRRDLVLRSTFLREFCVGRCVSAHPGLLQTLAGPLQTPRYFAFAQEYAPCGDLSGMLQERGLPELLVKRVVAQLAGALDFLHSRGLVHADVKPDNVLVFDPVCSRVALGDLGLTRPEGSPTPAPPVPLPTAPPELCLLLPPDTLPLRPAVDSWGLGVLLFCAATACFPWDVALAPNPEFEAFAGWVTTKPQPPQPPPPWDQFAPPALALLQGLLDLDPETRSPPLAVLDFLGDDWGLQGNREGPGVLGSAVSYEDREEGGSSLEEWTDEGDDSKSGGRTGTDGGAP
UniProt Q9UQM7, sequence (whole entry, looked up): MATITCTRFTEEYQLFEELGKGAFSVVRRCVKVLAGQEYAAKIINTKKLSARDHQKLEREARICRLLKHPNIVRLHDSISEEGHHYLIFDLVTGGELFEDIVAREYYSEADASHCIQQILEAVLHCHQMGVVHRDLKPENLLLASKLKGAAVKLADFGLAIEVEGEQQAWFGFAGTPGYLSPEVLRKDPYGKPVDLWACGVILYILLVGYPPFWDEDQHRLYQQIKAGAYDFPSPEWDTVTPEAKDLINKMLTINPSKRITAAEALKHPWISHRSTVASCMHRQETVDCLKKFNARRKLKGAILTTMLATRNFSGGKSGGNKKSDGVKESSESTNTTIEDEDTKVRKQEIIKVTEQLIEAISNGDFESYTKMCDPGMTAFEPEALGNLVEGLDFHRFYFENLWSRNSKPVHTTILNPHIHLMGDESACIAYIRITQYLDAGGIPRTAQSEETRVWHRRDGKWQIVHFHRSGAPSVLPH
UniProt P42336, sequence (whole entry, unmodified, looked up): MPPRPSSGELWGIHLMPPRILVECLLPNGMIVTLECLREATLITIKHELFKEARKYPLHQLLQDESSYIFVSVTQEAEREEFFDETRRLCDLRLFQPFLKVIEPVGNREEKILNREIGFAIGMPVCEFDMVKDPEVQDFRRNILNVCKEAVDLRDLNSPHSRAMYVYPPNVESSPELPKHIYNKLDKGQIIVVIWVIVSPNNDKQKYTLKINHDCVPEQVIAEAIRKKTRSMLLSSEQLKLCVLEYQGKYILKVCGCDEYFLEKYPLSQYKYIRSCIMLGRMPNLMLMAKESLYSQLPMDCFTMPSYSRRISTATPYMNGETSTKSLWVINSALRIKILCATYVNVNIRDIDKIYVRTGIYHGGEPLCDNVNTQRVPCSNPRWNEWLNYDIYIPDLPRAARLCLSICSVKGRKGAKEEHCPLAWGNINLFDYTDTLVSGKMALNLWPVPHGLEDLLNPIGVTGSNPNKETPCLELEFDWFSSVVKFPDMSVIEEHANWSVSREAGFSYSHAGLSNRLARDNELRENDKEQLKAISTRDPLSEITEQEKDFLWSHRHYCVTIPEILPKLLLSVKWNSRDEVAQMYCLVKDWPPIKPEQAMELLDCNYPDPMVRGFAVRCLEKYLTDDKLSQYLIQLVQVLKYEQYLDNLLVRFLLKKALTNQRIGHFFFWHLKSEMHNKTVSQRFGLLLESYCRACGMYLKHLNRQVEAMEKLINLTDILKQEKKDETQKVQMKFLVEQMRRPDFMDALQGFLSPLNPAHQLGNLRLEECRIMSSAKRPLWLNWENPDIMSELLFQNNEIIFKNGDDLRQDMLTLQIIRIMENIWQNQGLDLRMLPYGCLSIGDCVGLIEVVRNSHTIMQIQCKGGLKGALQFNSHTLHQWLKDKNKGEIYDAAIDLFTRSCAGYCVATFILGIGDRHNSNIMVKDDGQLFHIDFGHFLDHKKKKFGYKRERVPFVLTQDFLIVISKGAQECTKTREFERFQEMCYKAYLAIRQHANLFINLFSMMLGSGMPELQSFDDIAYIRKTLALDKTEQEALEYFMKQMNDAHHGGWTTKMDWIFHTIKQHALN

Study 1 — method: aptamer microarray, sandwich; form: DNA with 2'F-ANA; medium: in vitro; concentration: 200 nM; with: Cy3 exosite-II aptamer, 400 nM; reading: higher = stronger binding; measurement: mean fluorescence intensity; strand: GGTTGGTGTGGTTGG
Target: Prothrombin, mature alpha-thrombin (F2, Homo sapiens, UniProt P00734)
Setting: whole 15-mer aptamer, many near background
Modification = 2'F-ANA at 2 4 5 6 9 12 15; result = 120 a.u.
Modification = 2'F-ANA at 3 4 7 11 12 15; result = 940 a.u.
Modification = 2'F-ANA at 6 8 10 14 15; result = 96.3 a.u.
Modification = 2'F-ANA at 1 5 7 8 10 11 12 13; result = 47.3 a.u.
Modification = 2'F-ANA at 2 8 9 11 13; result = 338 a.u.
Modification = 2'F-ANA at 1 2 3 4 5 7 8 9 10 11 13 14; result = 74.4 a.u.
Modification = 2'F-ANA at 1 2 6 9 10 11 12 14 15; result = 54.1 a.u.
Modification = 2'F-ANA at 5 6 7 9 10 11 12 13 14 15; result = 46.2 a.u.

Study 2 — cell line: Huh-7; concentration: 10 µM; time: 24 h; measurement: viability
SMILES = COc1ccc(-c2cc(C(F)F)nn2-c2ccc(S(N)(=O)=O)cc2)cc1F; result = 96.3%
SMILES = CC(C)(C)NCC(O)c1cc(O)cc(O)c1 (centres unmarked); result = 101%
SMILES = CC(=O)OCC(=O)[C@@]1(O)[C@@H](C)C[C@H]2[C@@H]3CCC4=CC(=O)C=C[C@]4(C)[C@@]3(F)[C@@H](O)C[C@@]21C; result = 102%
SMILES = CC1(C)O[C@@H]2[C@@H](CO[C@@]3(COS(N)(=O)=O)OC(C)(C)O[C@@H]23)O1; result = 100%
SMILES = CCOC(=O)C1=C[C@]2(CC)CCCN3CCc4c(n1c1ccccc41)[C@@H]32; result = 97.1%
SMILES = Cc1cc(O)cc(C)c1Cl; result = 103%
SMILES = C[N+]1(C)CCCC(OC(=O)C(O)(c2ccccc2)c2ccccc2)C1 (centres unmarked); result = 98%
SMILES = CCn1cc(C(=O)O)c(=O)c2cc(F)c(N3CCNCC3)nc21; result = 102%
SMILES = CCCCN(CCCC)CCCOC(=O)c1ccc(N)cc1; result = 103%

Study 3 — method: competition with immobilised ligand; concentration: 0.1 µM; measurement: remaining binding
SMILES: Cc1cc(C)c(-n2ccn3nc(-c4cccnc4)cc23)cc1NC(=O)c1cc(C#N)cc(S(F)(F)(F)(F)F)c1
target = IKBKB (Homo sapiens, UniProt O14920); effect on = cell-free assay; result = 100%
target = Myosin-IIIb (MYO3B, Homo sapiens, UniProt Q8WXR4); effect on = binding; result = 82.4%
target = PIK3CA (Homo sapiens, UniProt P42336, E545K); effect on = cell-free assay; result = 77.8%
target = CDK3 (Homo sapiens, UniProt Q00526); effect on = cell-free assay; result = 92.4%
target = CAMK2A (Homo sapiens, UniProt Q9UQM7); effect on = cell-free assay; result = 95%
target = SBK3 (Homo sapiens, UniProt P0C264); effect on = cell-free assay; result = 100%
target = EGFR (Homo sapiens, UniProt P00533); effect on = cell-free assay; result = 85.1%
target = FGFR3 (Homo sapiens, UniProt P22607, G697C); effect on = cell-free assay; result = 100%
target = MUSK (Homo sapiens, UniProt O15146); effect on = cell-free assay; result = 78.6%
target = CAMK4 (Homo sapiens, UniProt Q16566); effect on = cell-free assay; result = 93.9%

Study 4 — target: CREBRF, bZIP domain (human); method: DHFR protein complementation; medium: yeast; baseline: wild-type JUN-FOS pair; reading: higher = stronger binding; measurement: binding fitness
Setting: single substitutions, most at no-binding floor
Starting sequence: JUN, bZIP domain (human); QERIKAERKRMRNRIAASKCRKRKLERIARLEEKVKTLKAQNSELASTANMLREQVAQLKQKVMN; partner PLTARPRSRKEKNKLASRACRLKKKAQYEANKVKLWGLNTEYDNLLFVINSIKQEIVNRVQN
Substitution = R30C; result = -1.43 natural log
Substitution = K39I; result = -1.54 natural log
Substitution = A57C; result = -1.36 natural log
Substitution = E32L; result = -1.4 natural log
Substitution = E32G; result = -1.35 natural log
Substitution = S43Q; result = -1.37 natural log
Substitution = Q55A; result = -1.5 natural log
Substitution = L31N; result = -1.51 natural log
